Experimental data of several laboratories.
Parts stem from different laboratories: compare values within a part only.

Study 1 — technique: RNA Bind-n-Seq; molecule type: RNA; sample: in vitro; concentration: 20 nM; setting: 6-mer, flanks averaged, single round; together with: 150 mM LiCl; relative to: input library; direction: higher = stronger binding
Target: TAR DNA-binding protein 43, full length, His tag (TARDBP, Homo sapiens, UniProt Q13148, residues 1-414)
`CCACGA`: “6-mer enrichment (R)” 0.834.
`AUCGGC`: “6-mer enrichment (R)” 0.861.
`UCCCGU` — result for “6-mer enrichment (R)”: 0.965.

Study 2 — technique: universal PBM; molecule type: double-stranded DNA, one strand shown; sample: in vitro; concentration: not given; direction: higher = stronger binding
Target: Sal-like protein 4, full length isoform B (SALL4, Homo sapiens, UniProt Q9UJQ4-2, residues 1-616)
Setting: 8-mer, flanks averaged, mean of replicates
Construct (chain): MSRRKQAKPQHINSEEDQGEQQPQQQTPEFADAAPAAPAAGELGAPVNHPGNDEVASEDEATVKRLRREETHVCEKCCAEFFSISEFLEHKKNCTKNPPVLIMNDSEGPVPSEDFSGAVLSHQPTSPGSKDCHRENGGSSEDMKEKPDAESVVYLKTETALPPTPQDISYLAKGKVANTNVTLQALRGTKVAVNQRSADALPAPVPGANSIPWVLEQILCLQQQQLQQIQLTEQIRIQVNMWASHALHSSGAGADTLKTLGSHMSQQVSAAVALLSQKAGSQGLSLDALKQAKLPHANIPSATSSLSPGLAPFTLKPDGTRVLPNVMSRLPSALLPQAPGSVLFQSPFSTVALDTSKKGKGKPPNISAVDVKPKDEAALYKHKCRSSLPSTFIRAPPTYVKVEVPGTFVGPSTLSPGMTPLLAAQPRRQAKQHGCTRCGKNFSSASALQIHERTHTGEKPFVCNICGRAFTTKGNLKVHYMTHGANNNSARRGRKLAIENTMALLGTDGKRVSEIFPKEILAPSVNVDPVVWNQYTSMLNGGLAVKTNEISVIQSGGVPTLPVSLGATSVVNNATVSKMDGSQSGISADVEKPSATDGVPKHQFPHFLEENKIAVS
The E-score of `CTGAATAC` is reported as 0.106.
The E-score of `GAGGAAGA` is reported as 0.00236.
The E-score of `ACCGGGTG` is reported as -0.291.
For `GACGTGAC`, the E-score was -0.045.
`CGCCATCA` gave an E-score of -0.127.
`CAATGCTG` gave an E-score of -0.00986.
The E-score of `ACGTGGTA` is reported as -0.0349.

Study 3 — technique: protein-binding microarray; molecule type: double-stranded DNA, one strand shown; sample: in vitro; concentration: 0.8 µM; setting: whole 60-bp probe, no competitor; direction: higher = stronger binding; constant ends, left off below: … GTCTTGATTCGCTTGACGCTGCTG
Target: Centromere-binding protein 1, full length, N-terminal tag (CBF1, Saccharomyces cerevisiae, UniProt P17106, residues 1-351)
Chain of UniProt P17106 (whole entry, looked up): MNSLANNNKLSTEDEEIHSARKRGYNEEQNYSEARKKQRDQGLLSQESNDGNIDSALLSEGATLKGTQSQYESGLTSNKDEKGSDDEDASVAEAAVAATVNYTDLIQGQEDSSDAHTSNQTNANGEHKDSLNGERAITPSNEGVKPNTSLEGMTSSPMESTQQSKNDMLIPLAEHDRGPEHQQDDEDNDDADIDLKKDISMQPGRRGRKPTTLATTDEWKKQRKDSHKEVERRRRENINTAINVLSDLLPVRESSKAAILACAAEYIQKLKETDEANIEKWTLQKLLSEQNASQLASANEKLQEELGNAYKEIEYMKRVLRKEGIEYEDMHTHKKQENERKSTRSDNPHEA
The fluorescence intensity of `CTAGTCACTCCGTCACACATGACAGAATTGCGTTTC` is reported as 875 a.u.
`GAATAATGAAAGAATCACGGCACGTTACTAATTTAG` has a fluorescence intensity of 1230 a.u.
`CTATGTAGTATTGAACGTGACAGGAAACAAAAATTC` has a fluorescence intensity of 1660 a.u.
The fluorescence intensity of `CTAGGTCAAAAAAATCAGGTGGATACATAACTTTTC` is reported as 753 a.u.
With `GAAGATACTAATGTAGACGTGGTGTTACTACAATAG` the fluorescence intensity was 529 a.u.
`CCTAACTACTATATAATCGTGATATAGCTTCGTACA` has a fluorescence intensity of 607 a.u.
With `CTAGCAAGATCGTATCAGGAGAATGAACGGGTCTTC` the fluorescence intensity was 529 a.u.

Mixed results
For `PhoQ, residues 284 288 289 292 302 303 QWGLFV`, the fold induction was 8.81 (PhoP, residues 12 14 15 18 19 NHFIF (Escherichia coli, UniProt P23836); Sort-seq, item: YFP reporter; E. coli; PhoQ-PhoP variant library, together with: 10 µM Mg2+; relative to: high Mg2+ state, higher = stronger signaling).

Some of these lines once more (study 3):
`GAATAATGAAAGAATCACGGCACGTTACTAATTTAG` has a fluorescence intensity of 1230 a.u.
`CTATGTAGTATTGAACGTGACAGGAAACAAAAATTC` has a fluorescence intensity of 1660 a.u.
The fluorescence intensity of `CTAGGTCAAAAAAATCAGGTGGATACATAACTTTTC` is reported as 753 a.u.
